Experimental data pooled from the literature.
Compare with care: the assays were run in different laboratories. Several values in a cell are separate wells, animals, samples, runs or records. ± marks the error that the study gave. In brackets after ≈: the same amount, converted by molar mass.

[Ca+2] — activity class (PP2C; enzyme activity; concentration not given): inactive
CC(=O)ON=C1C=CC(=C(C#N)c2ccccc2)C=C1 — remaining activity (pig GSK3 alpha/beta; enzyme activity, inhibitor, ADP-Glo; 2 µM, about MIC/10, with: ATP 10 µM): 103%
Oc1ccccc1-c1n[nH]cc1-c1ccnc2ccccc12 — log2 fold change (CMK1 (Candida albicans); kinase binding, MIB/MS competition; Candida albicans lysate; 1 µM; baseline: DMSO): 0.06
CC(Nc1nc(N2CCCC2)nc2ccccc12)c1ccccc1 (centres unmarked) — cells with nuclear reporter (importin α/β1; cMyc nuclear import, high content imaging; HeLa Kyoto reporter; 0.03 µM, 2 h): 95.3% and 97.5%
Nc1ncnc2c1ncn2[C@@H]1O[C@H](COP(=O)([O-])OP(=O)([O-])OP(=O)(O)O)[C@@H](O)[C@H]1O.[Mg+2] — relative current (P2X3 receptor (mouse); ion current, patch clamp; nodose ganglion neurons, P2rx3+/+ mice; 10 µM, compound anion form; baseline: ATP-induced current): 0.829 ± 0.211
Cc1nn(CC(F)(F)F)cc1Nc1ncc(Br)c(NCCc2cnc[nH]2)n1 — number of kinases bound (403 human wild-type kinases; scanMAX; PoC below 10): 28
O=C(O)/C=C/c1cnc[nH]1 — inhibition (gasdermin E (human); inhibitor; 100 µM, 2 h): 79.4%
CNCc1ccc(-c2cc(-c3nc(-c4ccc(S(=O)(=O)C(C)C)cc4)cnc3N)on2)cc1 — inhibition (CaMKII (rat); inhibitor; 0.4 µM, with: ATP at Km): 0%
C[n+]1cc2c3c(ccc2c2ccc4cc5c(cc4c21)OCO5)OCO3 — EC50 (Toxoplasma gondii; bradyzoite growth; pH 8.2, alkaline-induced bradyzoites): 4 µM
O=C(Nc1cccc(Nc2ncc(Br)c(NCCc3cnc[nH]3)n2)c1)N1CCCC1 — number of kinases bound (403 human wild-type kinases; scanMAX; PoC below 10): 8
CCCCCCC(C(C)O)n1cnc2c(N)ncnc21 (centres unmarked) — EC50 (cGMP antibody; acetylated cGMP EIA): > 1000 µM
O=C/C(=C/Cc1ccc(O)cc1)c1ccc(O)cc1 — IC50 (STAT3; reporter gene, inhibitor; NCI-H460): 3.11 µg/mL (≈ 12.2 µM)
CCN1CCN(c2cc(N3CCN(CC)CC3)nc(NCCNc3ccnc4cc(Cl)ccc34)n2)CC1 — activation (Gal4-VP16; reporter gene, Gal4-VP16 control reporter; 10 µM; baseline: vehicle): 1.25 ± 0.24 fold
O=C(NCCCNc1ccnc(Nc2cccc(NC(=O)N3CCCC3)c2)n1)C1CCC1 — selectivity score S10 (403 human wild-type kinases; scanMAX binding; 1 µM, hit below 10% of control; baseline: hits over kinases tested, direction not given): 0.007
O=S(=O)(NCCNC/C=C/c1ccc(Br)cc1)c1cccc2cnccc12 — embryos arrested at zygote stage (PKA; inhibitor; mouse zygotes; 20 µM, injection, hCG, 48 h post, early embryonic development): 0%
COCCOCc1ccc(-c2cc3onc(-c4ccccc4)c3c(=O)n2C)cc1 — activation (Gal4-VP16; reporter gene, Gal4-VP16 control reporter; 3 µM; baseline: vehicle): 1.36 fold
NS(=O)(=O)C#Cc1ccccc1 — EC50 (Toxoplasma gondii; parasite growth, luciferase reporter; HFF, tachyzoite; 72 h): 228 µM
c1coc(-c2n[nH]cc2-c2ccnc3ccccc23)c1 — log2 fold change (FUN31 (Candida albicans); kinase binding, MIB/MS competition; Candida albicans lysate; 1 µM; baseline: DMSO): 0.1
Cc1cc(F)cc2c(CCC(=O)N[C@@H]3C(=O)NC[C@H]3O)c(-c3ccc(F)cc3)[nH]c12 — inhibition (AMPA glutamate receptor; binding; 10 µM): -3%
Cc1nn(CC(F)(F)F)cc1Nc1nccc(NCCCNC(=O)C2CCC2)n1 — number of kinases bound (403 human wild-type kinases; scanMAX; PoC below 10): 1
CC[C@H](C)C(=O)O[C@H]1C[C@H](O)C=C2C=C[C@H](C)[C@H](CC[C@@H](O)C[C@@H](O)CC(=O)O)[C@H]21 — activation (Gal4-VP16; reporter gene, Gal4-VP16 control reporter; 10 µM; baseline: vehicle): 1.12 fold
Cc1nn(CC(F)(F)F)cc1Nc1ncc(Br)c(NCCCNC(=O)C2CCC2)n1 — number of kinases bound (403 human wild-type kinases; scanMAX; PoC below 10): 62
C=CC(=O)N1[C@@H](c2ccc3c(c2)OCO3)c2[nH]c3ccccc3c2C[C@H]1C(=O)NC — inhibition (PQLC3 Cys135 human; cysteine IA-DTB labelling, covalent inhibitor, MS-ABPP; 22Rv1; 20 µM, 3 h): 15% and 6%
Cc1nn(CC(F)(F)F)cc1Nc1ncc(C2CC2)c(NCc2ccc(S(N)(=O)=O)cc2)n1 — number of kinases bound (403 human wild-type kinases; scanMAX; PoC below 10): 2
OC[C@H]1O[C@@H]2O[C@H]3[C@H](O)[C@@H](O)[C@@H](O[C@H]4[C@H](O)[C@@H](O)[C@@H](O[C@H]5[C@H](O)[C@@H](O)[C@@H](O[C@H]6[C@H](O)[C@@H](O)[C@@H](O[C@H]7[C@H](O)[C@@H](O)[C@@H](O[C@H]8[C@H](O)[C@@H](O)[C@@H](O[C@H]1[C@H](O)[C@H]2O)O[C@@H]8CO)O[C@@H]7CO)O[C@@H]6CO)O[C@@H]5CO)O[C@@H]4CO)O[C@@H]3CO — bioluminescence induction (LuxR; Escherichia coli sensor; 100 µM; higher = stronger induction): 895 ± 11 RLU
c1cc(CN2CCOCC2)cc(Nc2ncc(C3CC3)c(NCCc3c[nH]cn3)n2)c1 — number of kinases bound (403 human wild-type kinases; scanMAX; PoC below 10): 27
Cc1ccc(Nc2nccc(N(C)c3ccc4c(C)n(C)nc4c3)n2)cc1S(N)(=O)=O — inhibition (CaMKII (rat); kinase activity, inhibitor; 10 µM): 10%
COc1cccc(CNC(=O)C#Cc2cn(Cc3ccc(C(=O)O)cc3)c(=O)[nH]c2=O)c1 — remaining MMP-8 activity (MMP-8; inhibitor, colorimetric; 20 µM): 108 ± 22%
NS(=O)(=O)c1ccc(CNc2ccnc(Nc3cccc(CN4CCOCC4)c3)n2)cc1 — selectivity score S10 (403 human wild-type kinases; scanMAX binding; 1 µM, hit below 10% of control; baseline: hits over kinases tested, direction not given): 0.007

For quick reference, copied from above:
CC(=O)ON=C1C=CC(=C(C#N)c2ccccc2)C=C1 — remaining activity (pig GSK3 alpha/beta; enzyme activity, inhibitor, ADP-Glo; 2 µM, about MIC/10, with: ATP 10 µM): 103%
Oc1ccccc1-c1n[nH]cc1-c1ccnc2ccccc12 — log2 fold change (CMK1 (Candida albicans); kinase binding, MIB/MS competition; Candida albicans lysate; 1 µM; baseline: DMSO): 0.06
CC(Nc1nc(N2CCCC2)nc2ccccc12)c1ccccc1 (centres unmarked) — cells with nuclear reporter (importin α/β1; cMyc nuclear import, high content imaging; HeLa Kyoto reporter; 0.03 µM, 2 h): 95.3% and 97.5%
